Assay results gathered from unrelated publications.
Compare with care: the assays were run in different laboratories. Numbers after ± are the reported error. In brackets after ≈: the same amount, converted by molar mass.

| Molecule | cell line | test | test system | conditions | scale | quantity | result |
| --- | --- | --- | --- | --- | --- | --- | --- |
| CN(C)c1cc(NC(=O)CNC(C)(C)C)c(O)c2c1C[C@H]1C[C@H]3[C@H](N(C)C)C(O)=C(C(N)=O)C(=O)[C@@]3(O)C(O)=C1C2=O | CHO | cytotoxicity, resazurin |  | 10% fetal calf serum |  | TC50 | > 100 µg/mL |
| O=c1[nH]c(=O)n([C@H]2C[C@H](OP(=O)(O)OC[C@H]3O[C@H](O)[C@H](O)[C@@H](O)[C@@H]3O)[C@@H](CO)O2)cc1I | PHA-stimulated human PBM cells | cell growth, trypan blue exclusion |  | 6 d |  | IC50 | > 100 µM |
| glutathione | PC-12 |  |  | 1 mM, 72 h, 37 °C | baseline: vehicle | viability | 101 ± 3.17% |
| C=C[C@]1(C)CC[C@H]2C(=C1C#N)c1c([nH]c3ccccc13)C2(C)C (relative stereo) | NCI-H460 | cytotoxicity |  |  |  | IC50 | > 40 µM |
| CC(=O)Oc1ccc2cc(-c3ccc(S(C)(=O)=O)cc3)c(=O)oc2c1OC(C)=O | MRC9 | cell growth or viability, crystal violet |  | 48 h |  | CC50 | > 100 µM |
| Cc1cc(O)c(C23CC4CC(CC(C4)C2)C3)cc1-c1ccc2cc(C(=O)O)ccc2c1Cl | Jurkat |  |  | 5 µM, 4 h | baseline: DMSO | caspase-3/7 activity | > 40 fold |
| COc1cccc(-c2ccnc3nc(Nc4ccc(S(N)(=O)=O)cc4)nn23)c1 | human peripheral blood lymphocytes | cell growth, resazurin |  | 72 h, together with: PHA stimulation |  | GI50 | 6 ± 0.8 µM |
| O=c1ccn([C@H]2C=C[C@@H](CO)O2)c(=O)[nH]1 | PHA-stimulated human PBM cells | cell growth, trypan blue exclusion |  | 6 d |  | IC50 | > 100 µM |
| c1cc2nc(c1)CNCCNCCNC2 | HT-22 | cell growth or viability, MTT |  |  |  | IC50 | 232 µM |
| CN(C)c1ccc(O)c2c1C[C@H]1C[C@H]3[C@H](N(C)C)C(O)=C(C(N)=O)C(=O)[C@@]3(O)C(O)=C1C2=O | COS | cytotoxicity, resazurin |  | 10% fetal calf serum |  | TC50 | > 100 µg/mL |
| Cc1ccc2oc(-c3ccc(O)c(O)c3)c(O)c(=O)c2c1 | H4IIE | MTT |  | concentration not given, 24 h | baseline: with over without cyclosporin A | difference in toxicity | 15.7% |
| NC(=O)[C@H](CCCN=C(N)CCl)NC(=O)c1ccccc1 | U-87 MG | annexin V-PI flow cytometry |  | 150.40 µM, 48 h |  | viable cells | 68.8 ± 9.41% |
| O=C1C(Cl)=C(N2C(=O)COCC2=O)C(=O)c2ccccc21 | BALB/c 3T3 clone A31 | cytotoxicity, MTT |  | 48 h |  | IC50 | 35.5 ± 1.76 µM |
| Cc1ncsc1-c1ccc(CNC(=O)[C@@H]2C[C@@H](O)CN2C(=O)[C@H](C(C)C)N2Cc3ccccc3C2=O)c(OCCNC(=O)c2ccccc2NC(=O)[C@H](CCCCN)NC(=O)[C@@H]2CCCN2C(=O)Cc2cccc3ccccc23)c1 | HCT-116 spheroids |  | PG-S peptide hydrogel | up to 64 µM, 3 days |  | viability | > 92% |
| NS(=O)(=O)c1ccc(Nc2nc3nccc(-c4ccccc4Cl)n3n2)cc1 | human peripheral blood lymphocytes | cell growth, resazurin |  | 72 h, together with: PHA stimulation |  | GI50 | > 10 µM |
| COc1cc(-c2oc3cc(C)c(C)cc3c(=O)c2O)ccc1O | H4IIE | MTT |  | concentration not given, 24 h | baseline: with over without cyclosporin A | difference in toxicity | 12.6% |
| CCc1nc(N)nc(N)c1-c1ccc(Cl)cc1 | L929 | MTT |  | 24 h, 10% FBS |  | CC30 | 111 µg/mL (≈ 445 µM) |
| C=C1[C@@H](O)C[C@H]2C(C)(C)C[C@H](Cl)C[C@]2(C)[C@H]1C[C@H](O)[C@H]1CC(=O)NC1=O | P388 | cytotoxicity |  |  |  | IC50 | 0.059 µM |

Excerpt of the above:
| Molecule | cell line | test | test system | conditions | scale | quantity | result |
| --- | --- | --- | --- | --- | --- | --- | --- |
| CC(=O)Oc1ccc2cc(-c3ccc(S(C)(=O)=O)cc3)c(=O)oc2c1OC(C)=O | MRC9 | cell growth or viability, crystal violet |  | 48 h |  | CC50 | > 100 µM |
| Cc1cc(O)c(C23CC4CC(CC(C4)C2)C3)cc1-c1ccc2cc(C(=O)O)ccc2c1Cl | Jurkat |  |  | 5 µM, 4 h | baseline: DMSO | caspase-3/7 activity | > 40 fold |
